Assay results gathered from unrelated publications.
A part holds a random share of what one study measured. Changes are numbered by the printed parent chain.

Set 1
Target: Histone acetyltransferase KAT6A, winged helix 1, GST fusion (KAT6A, Homo sapiens, UniProt Q92794, residues 1-85)
Method: protein binding microarray
Molecule type: double-stranded DNA, one strand shown
Medium: in vitro
Tested at: not given
Notes: 8-mer, flanks averaged, mean of 2 arrays, mostly near background
Baseline: not given
Direction: higher = stronger binding
Residues (chain): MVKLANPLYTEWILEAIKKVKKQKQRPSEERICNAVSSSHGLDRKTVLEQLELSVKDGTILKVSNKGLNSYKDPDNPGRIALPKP
`AAGACATA` has an E-score of -0.012.
The E-score of `AATCTGAA` is reported as -0.203.
For `AAGTACGC`, the E-score was 0.131.
For `AGACTTGG`, the E-score was -0.288.
With `AGCCCGAA` the E-score was 0.00308.
The E-score of `GATTTGCC` is reported as -0.0914.
`ATGTGAGG` has an E-score of -0.0821.
With `CTTATGCC` the E-score was -0.0853.
The E-score of `AATTCGGT` is reported as 0.0177.
With `CCTGTAAG` the E-score was -0.175.
`TACGGCTA` gave an E-score of 0.313.

Set 2
Target: ABI1, truncated, D143A, DHFR fusion (Arabidopsis thaliana)
Method: DHFR PCA, deep sequencing
Medium: yeast
Notes: methotrexate growth selection, single substitutions
With: (+)-ABA 0.39 µM
Baseline: wild-type fitted maximum
Direction: higher = stronger binding
Starting sequence: PYL1, truncated, DHFR fusion (Arabidopsis thaliana); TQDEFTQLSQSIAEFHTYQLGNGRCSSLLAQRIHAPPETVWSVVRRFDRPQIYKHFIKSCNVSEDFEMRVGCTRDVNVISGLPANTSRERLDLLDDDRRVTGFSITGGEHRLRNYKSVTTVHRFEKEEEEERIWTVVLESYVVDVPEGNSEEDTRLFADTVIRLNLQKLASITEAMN; partner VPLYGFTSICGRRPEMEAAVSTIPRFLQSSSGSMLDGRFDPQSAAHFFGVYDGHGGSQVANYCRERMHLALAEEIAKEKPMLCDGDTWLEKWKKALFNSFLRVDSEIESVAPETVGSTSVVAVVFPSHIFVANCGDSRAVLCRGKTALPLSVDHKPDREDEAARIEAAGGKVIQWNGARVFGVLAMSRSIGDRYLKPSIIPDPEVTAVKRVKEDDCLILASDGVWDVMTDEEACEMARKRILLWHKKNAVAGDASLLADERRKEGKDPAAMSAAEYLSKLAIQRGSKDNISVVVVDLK
Under “relative binding score”, `H34M` is recorded as 50.7%.
`R32G`: “relative binding score” 4.32%.
`L8H` — result for “relative binding score”: 0.674%.
For `Q7G`, “relative binding score” read 44.4%.
For `R155E`, “relative binding score” read -10.8%.
Under “relative binding score”, `S26V` is recorded as 0.662%.
For `R90K`, “relative binding score” read 18.5%.
`S59K` — result for “relative binding score”: 10.4%.
Under “relative binding score”, `F66H` is recorded as 11.4%.

Set 3
Target: Fragile X messenger ribonucleoprotein 1, C-terminal low-complexity region (Fmr1, Mus musculus, UniProt P35922)
Method: RNA Bind-n-Seq
Molecule type: RNA
Medium: in vitro
Tested at: 200 nM
Notes: whole 134-nt RNA, ends assumed
With: 150 mM KCl
Baseline: input library
Direction: higher = stronger binding
For `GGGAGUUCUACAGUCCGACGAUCUGGGAGGUGGAUUUUGUUUAUUUUUUUAGCUCAUUUCCGGGGGUGGGAAUUUUUUUUUAAUAUGUGUCAUGAAUAAAGUUGUUUUUGAAAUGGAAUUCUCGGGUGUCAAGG`, the log2 enrichment was 0.401.
`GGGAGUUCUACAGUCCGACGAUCCGGGAGGUGGAUUUUGUUUAUUUUUUUAGCUCAUUUCCAGGGGUGGGAAUUUUUUUUUAAUAUGUGUCAUGAAUAAAGUUGUUUUUGAAAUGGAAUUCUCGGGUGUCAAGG` has a log2 enrichment of 0.402.
The log2 enrichment of `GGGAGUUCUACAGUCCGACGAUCUAUUCCAAUGUCUGUGGGAAUAAUUGACACAAGGACGAAUCCAAGCCAGUUAAAUGCGGUUGAAUUUCUGUGGGACCCAGCAAAACGCACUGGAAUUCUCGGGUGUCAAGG` is reported as -0.149.
For `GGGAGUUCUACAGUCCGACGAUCUGUGCUACACAUCGUAUGUACCGAAUCGGGGAAAAAGGGGAAAAAAAGGGGUUUUUUUGGGGAAAGUAUUAUGUUACGCCGUUCGGAUCUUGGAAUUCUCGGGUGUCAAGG`, the log2 enrichment was 0.229.
The log2 enrichment of `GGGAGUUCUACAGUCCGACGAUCACCAUGCAGGUGGACAUCUUUGGGAAGUGGGGCAAGGGGGGGAUAGGGAGGGGGGUAACACUUUGGGAACAGGUGGUCCCAGGUCGUUUCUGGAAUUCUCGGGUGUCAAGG` is reported as 0.977.
`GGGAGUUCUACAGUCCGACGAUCCUUGACCCUCAACACCAACCAUGGGCAUAUCCUGGUGGAUUACUCCAAGAACCUGGUGACGGAGGACGUGAUGCGGAUGCUGGUGGACUUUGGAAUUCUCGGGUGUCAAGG` gave a log2 enrichment of -1.56.

Single results of other studies
With `PhoQ, residues 284 288 289 292 302 303 SSYNSA` the fold induction was 3.08 (PhoP, residues 12 14 15 18 19 NHFRA (Escherichia coli, UniProt P23836); Sort-seq, measured: YFP reporter; E. coli; PhoQ-PhoP variant library, with: 10 µM Mg2+; baseline: high Mg2+ state, higher = stronger signaling).

A few entries again (set 1):
For `AAGTACGC`, the E-score was 0.131.
The E-score of `GATTTGCC` is reported as -0.0914.
The E-score of `AATTCGGT` is reported as 0.0177.
